Experimental data from different studies.
Protocols differ between the studies behind these lines. Several values in a cell are separate wells, animals, samples, runs or records. ± marks the error that the study gave.
USP14: Ubiquitin carboxyl-terminal hydrolase 14 (USP14, Homo sapiens, UniProt P54578)
Chain of UniProt P54578 (whole entry, looked up): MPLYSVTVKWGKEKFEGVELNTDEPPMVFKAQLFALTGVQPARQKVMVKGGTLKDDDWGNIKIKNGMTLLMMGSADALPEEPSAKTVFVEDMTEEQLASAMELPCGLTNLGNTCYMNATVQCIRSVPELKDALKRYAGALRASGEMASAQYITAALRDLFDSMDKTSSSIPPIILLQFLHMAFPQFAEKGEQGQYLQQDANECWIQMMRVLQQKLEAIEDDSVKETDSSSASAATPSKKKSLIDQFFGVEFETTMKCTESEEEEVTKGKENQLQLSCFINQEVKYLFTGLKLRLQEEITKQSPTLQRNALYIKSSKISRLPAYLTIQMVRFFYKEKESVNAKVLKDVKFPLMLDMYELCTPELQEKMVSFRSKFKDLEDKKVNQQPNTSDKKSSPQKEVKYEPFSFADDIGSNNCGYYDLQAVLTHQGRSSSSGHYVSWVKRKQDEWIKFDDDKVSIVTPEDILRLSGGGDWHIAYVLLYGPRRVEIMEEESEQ
MAPK9: Mitogen-activated protein kinase 9 (MAPK9, Homo sapiens, UniProt P45984)
Chain of UniProt P45984 (whole entry, looked up): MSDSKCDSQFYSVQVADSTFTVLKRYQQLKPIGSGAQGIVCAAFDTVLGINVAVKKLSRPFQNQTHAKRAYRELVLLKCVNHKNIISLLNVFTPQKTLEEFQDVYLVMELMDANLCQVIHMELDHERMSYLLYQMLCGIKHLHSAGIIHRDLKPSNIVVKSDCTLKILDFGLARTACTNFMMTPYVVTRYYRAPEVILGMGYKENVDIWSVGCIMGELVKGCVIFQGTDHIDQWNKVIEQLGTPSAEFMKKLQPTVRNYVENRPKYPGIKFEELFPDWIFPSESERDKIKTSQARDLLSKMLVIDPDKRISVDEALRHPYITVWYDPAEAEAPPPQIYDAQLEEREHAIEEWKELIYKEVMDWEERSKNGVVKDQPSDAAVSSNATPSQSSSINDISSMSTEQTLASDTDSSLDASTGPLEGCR
PPO3: PPO3 (Agaricus bisporus, UniProt C7FF04)
Chain of UniProt C7FF04 (whole entry, looked up): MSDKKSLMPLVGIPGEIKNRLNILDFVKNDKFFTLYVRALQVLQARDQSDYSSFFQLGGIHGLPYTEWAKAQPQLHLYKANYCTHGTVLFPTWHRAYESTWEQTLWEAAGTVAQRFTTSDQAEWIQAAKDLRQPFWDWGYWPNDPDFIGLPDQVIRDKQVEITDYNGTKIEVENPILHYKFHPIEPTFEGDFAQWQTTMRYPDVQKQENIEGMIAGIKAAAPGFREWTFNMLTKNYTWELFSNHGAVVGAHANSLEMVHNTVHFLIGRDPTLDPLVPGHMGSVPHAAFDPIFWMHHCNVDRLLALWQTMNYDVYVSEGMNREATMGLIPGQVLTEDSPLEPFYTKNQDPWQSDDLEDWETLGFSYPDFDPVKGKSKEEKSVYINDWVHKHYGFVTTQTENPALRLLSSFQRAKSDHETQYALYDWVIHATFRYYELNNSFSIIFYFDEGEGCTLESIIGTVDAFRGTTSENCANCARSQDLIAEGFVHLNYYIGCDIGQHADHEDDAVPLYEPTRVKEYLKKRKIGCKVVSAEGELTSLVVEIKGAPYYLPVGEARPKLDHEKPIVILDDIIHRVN
SLC6A9: Sodium- and chloride-dependent glycine transporter 1 (SLC6A9, Homo sapiens, UniProt P48067)
Chain of UniProt P48067 (whole entry, looked up): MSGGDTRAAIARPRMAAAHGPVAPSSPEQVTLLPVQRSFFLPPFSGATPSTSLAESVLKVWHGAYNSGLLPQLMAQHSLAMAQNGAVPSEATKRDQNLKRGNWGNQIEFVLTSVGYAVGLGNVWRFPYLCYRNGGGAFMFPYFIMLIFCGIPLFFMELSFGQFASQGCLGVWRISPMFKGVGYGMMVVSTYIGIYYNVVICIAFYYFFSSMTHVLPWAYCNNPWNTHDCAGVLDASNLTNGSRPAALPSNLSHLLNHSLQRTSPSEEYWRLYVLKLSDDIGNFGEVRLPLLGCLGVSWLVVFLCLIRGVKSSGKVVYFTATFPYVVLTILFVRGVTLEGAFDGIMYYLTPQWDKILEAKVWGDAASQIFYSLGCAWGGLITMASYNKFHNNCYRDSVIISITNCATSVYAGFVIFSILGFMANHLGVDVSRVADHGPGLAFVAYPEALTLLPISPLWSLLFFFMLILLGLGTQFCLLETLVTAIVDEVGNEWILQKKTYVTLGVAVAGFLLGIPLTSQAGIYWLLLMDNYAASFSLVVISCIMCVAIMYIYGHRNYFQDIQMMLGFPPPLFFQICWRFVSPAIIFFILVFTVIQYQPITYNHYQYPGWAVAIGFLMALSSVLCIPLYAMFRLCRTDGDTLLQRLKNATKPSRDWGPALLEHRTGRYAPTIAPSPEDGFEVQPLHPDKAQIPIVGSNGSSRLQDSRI
Gria2/Glutamate receptor 3: Gria2/Glutamate receptor 3 (Rattus norvegicus, UniProt P19491+P19492)
Chain of UniProt P19492 (whole entry, looked up): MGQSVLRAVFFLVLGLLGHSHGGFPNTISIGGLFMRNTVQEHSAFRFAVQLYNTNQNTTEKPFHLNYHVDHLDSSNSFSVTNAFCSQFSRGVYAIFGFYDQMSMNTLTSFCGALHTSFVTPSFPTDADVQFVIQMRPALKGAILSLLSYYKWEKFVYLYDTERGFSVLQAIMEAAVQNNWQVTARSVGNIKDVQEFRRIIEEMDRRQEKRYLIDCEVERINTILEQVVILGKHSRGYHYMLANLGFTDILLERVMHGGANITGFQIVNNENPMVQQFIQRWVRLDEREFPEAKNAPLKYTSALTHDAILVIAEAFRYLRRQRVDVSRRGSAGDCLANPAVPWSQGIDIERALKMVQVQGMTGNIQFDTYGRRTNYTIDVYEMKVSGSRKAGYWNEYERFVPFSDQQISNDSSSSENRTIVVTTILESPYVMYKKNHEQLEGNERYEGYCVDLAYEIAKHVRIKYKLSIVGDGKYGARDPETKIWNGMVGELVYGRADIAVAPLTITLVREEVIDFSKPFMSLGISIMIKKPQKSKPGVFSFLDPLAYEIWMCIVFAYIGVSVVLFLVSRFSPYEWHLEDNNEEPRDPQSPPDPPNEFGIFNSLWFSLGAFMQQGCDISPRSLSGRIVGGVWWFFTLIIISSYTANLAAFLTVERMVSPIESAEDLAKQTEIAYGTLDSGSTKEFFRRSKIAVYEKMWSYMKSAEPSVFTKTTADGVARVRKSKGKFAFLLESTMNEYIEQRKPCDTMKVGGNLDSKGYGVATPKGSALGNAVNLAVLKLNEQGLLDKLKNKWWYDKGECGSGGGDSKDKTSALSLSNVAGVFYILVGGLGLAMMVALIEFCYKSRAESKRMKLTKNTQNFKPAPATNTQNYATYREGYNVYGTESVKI
Chain of UniProt P19491 (whole entry, looked up): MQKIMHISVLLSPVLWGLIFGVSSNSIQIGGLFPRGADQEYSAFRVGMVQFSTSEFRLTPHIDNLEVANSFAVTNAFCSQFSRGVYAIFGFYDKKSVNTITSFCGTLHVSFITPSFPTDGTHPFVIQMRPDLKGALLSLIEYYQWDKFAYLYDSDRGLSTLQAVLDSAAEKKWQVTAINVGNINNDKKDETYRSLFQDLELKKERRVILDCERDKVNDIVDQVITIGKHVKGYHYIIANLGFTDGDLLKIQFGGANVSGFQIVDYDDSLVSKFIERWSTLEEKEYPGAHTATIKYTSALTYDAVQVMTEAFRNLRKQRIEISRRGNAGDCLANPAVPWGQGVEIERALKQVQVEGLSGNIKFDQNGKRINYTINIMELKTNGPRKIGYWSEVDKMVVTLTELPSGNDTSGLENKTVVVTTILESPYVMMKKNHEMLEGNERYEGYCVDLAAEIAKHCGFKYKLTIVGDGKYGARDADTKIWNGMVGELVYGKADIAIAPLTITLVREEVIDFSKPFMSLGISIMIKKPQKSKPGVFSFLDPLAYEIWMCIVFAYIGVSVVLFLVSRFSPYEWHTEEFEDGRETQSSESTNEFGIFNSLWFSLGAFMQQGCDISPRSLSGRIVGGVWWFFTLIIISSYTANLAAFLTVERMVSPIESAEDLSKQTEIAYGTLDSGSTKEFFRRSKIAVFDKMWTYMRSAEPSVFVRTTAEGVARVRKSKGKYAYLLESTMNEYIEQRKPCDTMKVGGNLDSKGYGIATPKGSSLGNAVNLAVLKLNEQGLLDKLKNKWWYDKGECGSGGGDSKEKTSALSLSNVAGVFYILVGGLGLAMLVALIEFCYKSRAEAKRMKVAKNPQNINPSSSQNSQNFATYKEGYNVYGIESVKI
T1: DNA hairpin, hairpin; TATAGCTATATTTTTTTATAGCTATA
Chain of UniProt Q9NSD7 (whole entry, looked up): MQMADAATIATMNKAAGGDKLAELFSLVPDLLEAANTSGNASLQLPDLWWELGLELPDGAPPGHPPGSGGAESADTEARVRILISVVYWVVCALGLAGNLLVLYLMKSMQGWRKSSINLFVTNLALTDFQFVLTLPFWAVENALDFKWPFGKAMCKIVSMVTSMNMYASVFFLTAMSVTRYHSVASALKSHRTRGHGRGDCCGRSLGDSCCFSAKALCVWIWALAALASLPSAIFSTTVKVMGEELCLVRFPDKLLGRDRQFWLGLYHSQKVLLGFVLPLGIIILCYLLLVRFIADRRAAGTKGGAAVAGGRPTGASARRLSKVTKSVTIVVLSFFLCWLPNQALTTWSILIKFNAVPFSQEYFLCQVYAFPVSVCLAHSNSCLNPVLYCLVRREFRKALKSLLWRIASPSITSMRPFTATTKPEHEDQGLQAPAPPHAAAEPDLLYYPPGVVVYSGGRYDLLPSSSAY
Chain of UniProt Q13148 (whole entry, looked up): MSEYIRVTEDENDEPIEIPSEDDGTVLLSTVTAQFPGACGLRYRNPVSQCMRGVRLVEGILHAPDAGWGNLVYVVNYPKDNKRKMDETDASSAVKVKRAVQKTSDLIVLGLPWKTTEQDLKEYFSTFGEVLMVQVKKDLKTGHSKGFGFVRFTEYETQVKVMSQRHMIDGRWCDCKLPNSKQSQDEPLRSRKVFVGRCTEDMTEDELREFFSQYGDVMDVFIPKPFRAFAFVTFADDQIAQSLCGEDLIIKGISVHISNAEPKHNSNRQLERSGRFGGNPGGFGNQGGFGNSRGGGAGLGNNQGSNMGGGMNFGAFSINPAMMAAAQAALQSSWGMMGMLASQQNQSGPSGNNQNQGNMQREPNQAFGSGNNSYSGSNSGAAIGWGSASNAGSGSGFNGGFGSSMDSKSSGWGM

CCCCCC(O)/C=C/C=O (centres unmarked) — isoTOP-ABPP competition ratio (Outer kinetochore KNL1 complex subunit ZWINT (ZWINT, Homo sapiens, UniProt O95229); competitive isoTOP-ABPP, measured: ZWINT cysteine peptide; Ramos soluble proteome; 100 µM, with: iodoacetamide probe; reference: DMSO over compound-treated, higher = stronger cysteine blockade): 2.7
COc1ccc(OC)c(S(=O)(=O)N=C2C=C3N(CCO)CCOC3(O)c3ccccc32)c1 (centres unmarked) — inhibition (USP14; enzyme activity, inhibitor; 17 µM): 69%
C#CCOC(=O)[C@]1(C)C=C(C(=O)Nc2cccc(C(=O)Nc3ccc(C)c(Nc4nccc(-c5cccnc5)n4)c3)c2)C(=O)CC1 — remaining activity (MAPK9; enzyme activity, inhibitor; 4.938 µM, unit not given; reference: vehicle): 0.0767
COc1cc(Nc2nccc(-c3cnn4nc(OC)ccc34)n2)cc(C(F)(F)F)c1 — remaining binding (PIK3CA (Homo sapiens, UniProt P42336, C420R); binding; 1 µM): 93%
CCN1CCN(Cc2ccc(C(=O)Nc3ccc(C)c(NCc4cnc5[nH]ccc5c4OC)c3)cc2C(F)(F)F)CC1 — remaining binding (Tyrosine-protein kinase ABL1, non-phosphorylated (ABL1, Homo sapiens, UniProt P00519, T315I); binding, competition with immobilised ligand; 1 µM): 2.5%
Clc1ccc(-c2cc(CN3c4ccccc4C=Cc4ccccc43)on2)cc1 — apparent Km (PPO3; enzyme activity, inhibitor; concentration not given): 7.62 mM
CC[C@H](C)[C@H](NC(=O)[C@@H](NC(=O)[C@@H](NC(=O)[C@@H](NC(=O)[C@H](CCCNC(=N)N)NC(=O)[C@H](CCC(=O)O)NC(=O)[C@H](CCC(=O)O)NC(=O)[C@H](C)NC(=O)[C@H](CCC(=O)O)NC(=O)CNC(=O)[C@H](C)NC(=O)CN)C(C)C)C(C)C)C(C)C)C(=O)N[C@@H](CC(=O)O)C(=O)N[C@@H](CC(=O)O)C(=O)N[C@@H](CC(=O)O)C(=O)N[C@@H](CCC(=O)O)C(=O)N[C@@H](CC(=O)O)C(=O)N[C@@H](CC(=O)O)C(=O)N[C@@H](CC(=O)O)C(=O)N[C@@H](C)C(=O)N[C@@H](CCC(=O)O)C(=O)N[C@@H](CC(N)=O)C(=O)N[C@@H](CO)C(=O)N[C@@H](CO)C(=O)N[C@@H](CO)C(=O)N[C@@H](CCCNC(=N)N)C(=O)N[C@@H](Cc1ccc(O)cc1)C(=O)O — -TΔS (Small ubiquitin-related modifier 1, residues 17-97 (Homo sapiens, UniProt P63165, C52A); isothermal titration calorimetry; pH 7.4, N-terminally truncated SUMO1): -15.1 ± 0.1 kcal/mol
OC[C@H]1O[C@@H](Oc2cc3c(O)cc(O)cc3[o+]c2-c2cc(O)c(O)c(O)c2)[C@H](O)[C@@H](O)[C@H]1O — number of binding sites (PPO3; fluorescence quenching; concentration not given, 298 K): 1.12
C[Si](C)(C)C[C@H](CN)CC(=O)O — inhibition (ADCYAP1R1 (Homo sapiens, UniProt P41586); ligand displacement, radioligand; 250 µM): 0%
CC[C@H](C)[C@@H]1NC(=O)[C@H](Cc2ccccc2)NC(=O)[C@H](CCC(=O)O)NC(=O)[C@H](CCCNC(=N)N)NC(=O)CNC(=O)[C@@H](NC(=O)[C@H](CC(C)C)NC(=O)[C@H](CCCNC(=N)N)NC(=O)[C@@H](NC(=O)CNC(=O)[C@H](Cc2ccc(O)cc2)NC(=O)[C@@H]2CCCN2C(=O)[C@H](C)NC(=O)[C@H](C)NC(=O)[C@@H](N)CCCNC(=N)N)C(C)C)CSSC[C@@H]2NC(=O)[C@@H](NC(=O)[C@H](CO)NC(=O)[C@H](CO)NC(=O)[C@H](CO)NC(=O)[C@H](CC(C)C)NC(=O)CNC(=O)[C@H](C)NC(=O)[C@H](CC(C)C)NC(=O)[C@@H](NC(=O)[C@@H](N)CC(=O)O)C(C)C)CSSC[C@H](NC(=O)CNC(=O)[C@H](Cc3c[nH]c4ccccc34)NC(=O)[C@H](CCCCN)NC2=O)C(=O)N[C@@H](CO)C(=O)N[C@@H](CCCCN)C(=O)N[C@@H](CO)C(=O)N[C@@H](CCC(=O)O)C(=O)N[C@@H]([C@@H](C)CC)C(=O)N[C@@H](CO)C(=O)N[C@@H](CO)C(=O)N[C@@H](CC(C)C)C(=O)N[C@H](C(=O)O)CSSC[C@@H](C(=O)NCC(=O)NCC(=O)N[C@@H](CO)C(=O)N[C@@H](CCCNC(=N)N)C(=O)N[C@@H](Cc2c[nH]c3ccccc23)C(=O)O)NC(=O)[C@H]([C@@H](C)O)NC(=O)[C@H](Cc2ccccc2)NC(=O)[C@H]([C@@H](C)CC)NC(=O)[C@H](C(C)C)NC(=O)[C@H](C)NC(=O)[C@H](CCCNC(=N)N)NC1=O — cAMP accumulation (RXFP3 (Homo sapiens, UniProt Q9NSD7); agonist; 1 µM, wild-type receptor): 3.08% and 6.61% and 5.38%
COc1ncc2nc(C)n(Cc3ncc(S(N)(=O)=O)cc3F)c2c1-c1ccccc1 — activation (HTR2B (Homo sapiens, UniProt P41595); agonist, cell-based; 10 µM): 7.93%
COc1ccc(C(OCCN2CCCC2C(=O)O)(c2ccc(OC)cc2)c2ccc(OC)cc2)cc1 (centres unmarked) — remaining signal (SLC6A9; cell-free assay; 1 µM): 57%
Cc1ncsc1-c1ccc(CNC(=O)[C@@H]2C[C@@H](O)CN2C(=O)[C@@H](NC(=O)C2(F)CC2)C(C)(C)C)c(OCCC2CCN(c3nc(N(C)CCNC(=O)C(C)C)nc(N4CCn5nnc(CO)c5C4)n3)CC2)c1 — ternary complex formation (VHL/BRD9, with Elongin B/C (Homo sapiens, UniProt P40337+Q9H8M2); native mass spectrometry; 5 µM, with: BRD9 and VCB at 5 µM; reference: unbound BRD9): 9%
O=C1c2sc(-c3ccc(N4CCC(CO)CC4)nc3F)nc2CCN1c1cccnc1 — specific binding (TAR DNA-binding protein 43, aggregated (TARDBP, Homo sapiens, UniProt Q13148); radioligand binding; human, FTLD-TDP type A insoluble extract; 1.29 nM): 0.526 nM and 0.754 nM and 0.492 nM and 0.734 nM
COC(=O)c1[nH]c2sc3c(c2c1N)CCCC3 — inhibition (USP14; enzyme activity, inhibitor; 17 µM): 53%
COc1ccc(C2(C(=O)N3CCC(Nc4nc5ccccc5c(=O)[nH]4)CC3)CC2)cc1 — Hill slope (MRGPRD (Homo sapiens, UniProt Q8TDS7, Y245A); miniGq recruitment, agonist, BRET; HEK293T; Y245A mutant): 1.44
COC(=O)Cc1cc2c(cc1C(=O)c1cccc(Br)c1)OCO2 — desensitization time constant (Gria2/Glutamate receptor 3; glutamate-evoked current, whole-cell patch clamp; HEK-293T; concentration not given, weighted tau, 500 ms pulse, with: glutamate): 2.3 ± 0.2 ms
N#CN1CC[C@H](C(=O)Nc2nc3c(s2)CN(C(=O)Cn2cc(COCCOCCOCCOCCNC(=O)CCCC[C@@H]4SC[C@@H]5NC(=O)N[C@@H]54)nn2)CC3)C1 — iBAQ abundance (UCHL3 (Homo sapiens, UniProt P15374); probe binding, affinity probe, neutravidin pull-down LC-MS/MS; HEK293T, cell lysate; 5 µM, 1 h, mean of three replicates, unit not given; higher = more pulled down): 8.82e+06
COC(=O)Cc1cc2c(cc1C(=O)c1cccc(I)c1)OCO2 — deactivation time constant (Gria2/Glutamate receptor 3; glutamate-evoked current, whole-cell patch clamp; HEK-293T; concentration not given, weighted tau, 1 ms pulse, with: glutamate): 2.6 ± 0.2 ms
O=C(O)C1CCCN(CC=CC(c2ccc3ccoc3c2)(c2ccc3ccoc3c2)c2ccc3ccoc3c2)C1 (centres unmarked) — remaining signal (SLC6A9; cell-free assay; 1 µM): 85.7%
COC(=O)[C@@]1(C)C=C(C(=O)Nc2cccc(C(=O)Nc3ccc(Nc4nccc(-c5cccnc5)n4)c(C)c3)c2)C(=O)CC1 — remaining activity (MAPK9; enzyme activity, inhibitor; 0.006774 µM, unit not given; reference: vehicle): 0.92
C=CC(=O)N1CCCC(n2c(=O)c3ncccc3n(Cc3ccc(Oc4ccccc4)cc3)c2=O)C1 (centres unmarked) — melting temperature shift (USP14; thermal proteome profiling; cell proteome; unit not given; reference: vehicle): -4.17
COc1cc(/C=C/C=O)cc(OC)c1O — Hill coefficient (uncharacterized protein (Solanum tuberosum, UniProt M0ZZL3); enzyme activity): 1 ± 0.1
C#CCCCC(=O)NCC1CN(CCCCCNC(=O)CN(CCN)C(=O)Cn2cnc3c(=O)[nH]c(N)nc32)CCN(CCCCCNC(=O)CN(CCN)C(=O)Cn2cnc3c(=O)[nH]c(N)nc32)CCN(CCCCCNC(=O)CN(CCN)C(=O)Cn2cnc3c(=O)[nH]c(N)nc32)CCN1CCCCCNC(=O)CN(CCN)C(=O)Cn1cnc2c(=O)[nH]c(N)nc21 (centres unmarked) — change in melting temperature (T1, DNA hairpin, hairpin; FRET melting): 0 °C
CCCCCCCCCCCCC/C=C/C=O — isoTOP-ABPP competition ratio (Ketosamine-3-kinase, C24 (FN3KRP, Homo sapiens, UniProt Q9HA64); competitive isoTOP-ABPP; Ramos soluble proteome; 100 µM, 60 min, with: iodoacetamide probe; reference: DMSO over compound-treated, higher = stronger cysteine blockade): 1
CCCCCCOc1ccc(C(=O)OCC[N+]2(C)CC=CCC2)cc1 (centres unmarked) — basal binding (CHRM1 (Homo sapiens, UniProt P11229); membranes; 10 µM, 15 h, no carbachol; reference: control): 0.99 ± 0.02 fold
CN(C)C=CC=C1CCc2ccccc2C1=O — inhibition (USP14; enzyme activity, inhibitor; 17 µM): 70%
COC(=O)[C@@]1(Cc2ccccc2)C=C(C(=O)OC(C)(C)C)C(=O)CC1 — fraction bound (MAPK14 (Homo sapiens, UniProt Q16539, C119V); peptide binding, fluorescence polarization; 15.62 µM): 0.361
CC(NN)c1nn(-c2ccccc2)c(=O)c2c(N)scc12 (centres unmarked) — inhibition (USP14; enzyme activity, inhibitor; 17 µM): 47%
CC[C@H](C)[C@H](NC(=O)[C@@H](NC(=O)c1ccnc(Cl)c1Cl)C(C)(C)C)C(=O)N[C@H](C(=O)N[C@H](C(=O)N[C@H](C(=O)N[C@@H](CCC(N)=O)C(=O)N[C@@H](Cc1c[nH]cn1)C(=O)N[C@H](CC(C)C)C(=O)N[C@@H](CO)C(=O)NCCOCCOCC(=O)N[C@@H](CCCCNC(=O)CC[C@@H]1NC(=O)[C@@H](CCCNC(=N)N)NC(=O)[C@H](CCCNC(=N)N)NC(=O)[C@@H](CCCNC(=N)N)NC(=O)[C@H](CCCNC(=N)N)NC(=O)[C@H](Cc2ccc3ccccc3c2)NC(=O)[C@@H](Cc2ccccc2)NC1=O)C(N)=O)[C@@H](C)O)[C@@H](C)CC)C(C)(C)O — enzyme activity (Protein phosphatase 3 catalytic subunit alpha, with calcineurin B (PPP3CA, Homo sapiens, UniProt Q08209); 50 µM, with: p-nitrophenyl phosphate): no inhibition
C[n+]1cc(/C=N/NC(=O)C(=O)N/N=C/c2cc3ccccc3[n+](C)c2)cc2ccccc21 — ΔTm (hp2 hairpin duplex DNA; FRET melting; 1 µM): 1.3 ± 0.3 °C
CNC(=O)C1CCN(c2cc(C)c(F)cc2NC(=O)c2ccc(-c3cc(O)ccc3C)c(C)c2)CC1 — remaining binding (Tyrosine-protein kinase ABL1, non-phosphorylated (ABL1, Homo sapiens, UniProt P00519, F317I); binding, competition with immobilised ligand; 1 µM): 85%
O=C(O)Cc1cc2c(cc1C(=O)c1cccc(Cl)c1)OCO2 — deactivation time constant (Gria2/Glutamate receptor 3; glutamate-evoked current, whole-cell patch clamp; HEK-293T; concentration not given, weighted tau, 1 ms pulse, with: glutamate): 9.3 ± 0.5 ms
CC(C)C[C@@H]1NC(=O)CN(C)C(=O)[C@H](Cc2c[nH]c3ccccc23)NC(=O)[C@H](CCC(=O)O)NC(=O)[C@H](Cc2ccccc2)N(C)C(=O)[C@H](Cc2ccccc2)NC(=O)CSC[C@@H](C(N)=O)NC(=O)[C@H](CCCCN)NC(=O)[C@H](C(C)C)NC(=O)[C@H](Cc2ccc(O)cc2)NC(=O)[C@H](Cc2ccc(O)cc2)NC(=O)[C@H](C(C)C)NC(=O)[C@H](Cc2ccccc2)N(C)C(=O)[C@H](CCCNC(=N)N)NC1=O — ΔTm (AT-rich interactive domain-containing protein 1B (ARID1B, Homo sapiens, UniProt Q8NFD5, I2161S); differential scanning fluorimetry; 5 µM, I2078S mutant): 6 ± 1 °C
CN(CCNCc1ccncc1[O-])CCNCc1ccncc1[O-].[Cl-].[Fe+3] — observed transchelation rate constant (TF (Homo sapiens, UniProt P02787); measured: Fe; 0.05 mM, pH 7.4, 37 °C, with: transferrin 0.10 mM): 0.037 min⁻¹

A few entries again:
C#CCOC(=O)[C@]1(C)C=C(C(=O)Nc2cccc(C(=O)Nc3ccc(C)c(Nc4nccc(-c5cccnc5)n4)c3)c2)C(=O)CC1 — remaining activity (MAPK9; enzyme activity, inhibitor; 4.938 µM, unit not given; reference: vehicle): 0.0767
COc1cc(Nc2nccc(-c3cnn4nc(OC)ccc34)n2)cc(C(F)(F)F)c1 — remaining binding (PIK3CA (Homo sapiens, UniProt P42336, C420R); binding; 1 µM): 93%
CCN1CCN(Cc2ccc(C(=O)Nc3ccc(C)c(NCc4cnc5[nH]ccc5c4OC)c3)cc2C(F)(F)F)CC1 — remaining binding (Tyrosine-protein kinase ABL1, non-phosphorylated (ABL1, Homo sapiens, UniProt P00519, T315I); binding, competition with immobilised ligand; 1 µM): 2.5%
